Experimental data from different studies.
Compare with care: the assays were run in different laboratories.
Organism: Trypanosoma brucei

| Structure (SMILES) | observed | technique | strain | time | notes | EC50 |
| --- | --- | --- | --- | --- | --- | --- |
| Nc1nc(Nc2ccccc2)sc1C(=O)c1ccccc1 | cell proliferation | resazurin | bloodstream form | 73 h |  | 200 nM |
| COC(=O)c1[nH]c(C(=O)OC)c2c1c1c3cc(Cl)ccc3[nH]c1c1[nH]c3ccc(Cl)cc3c12 | parasite growth | ATP luminescence |  | 48 h |  | 370 nM |
| C[C@@H](Nc1c(-c2c(F)cc(C#CCCN)cc2F)c(Cl)nc2ncnn12)C(C)(C)C | parasite growth | SYBR Green |  | 72 h |  | 240 nM |
| Clc1cccc(CNCCCNc2nc3ccccc3[nH]2)c1 | parasite growth |  |  |  |  | 150 nM |
| CN(C)CCCOc1cc(F)c(-c2c(Cl)nc3ncnn3c2NCC2CCC2)c(F)c1 | parasite growth | SYBR Green |  | 72 h |  | 51.3 nM |
| Cc1ccc(-c2cc(C(=O)NCCCn3ccnc3)c3cc(Br)ccc3n2)o1 | parasite growth | resazurin |  | 73 h |  | 16500 nM |
| CC1CC(=O)c2c(OCC(=O)N3CCC(C(=O)Nc4ccccc4)CC3)ccc(Cl)c21 (stereo not shown) | cell viability | flow cytometry, PI | bloodstream form | 24 h |  | > 25000 nM |
| CC(=O)OC[C@H]1O[C@@H]([Se]C(C)=O)[C@H](OC(C)=O)[C@@H](OC(C)=O)[C@@H]1OC(C)=O | parasite growth |  |  | 24 h |  | 430 nM |
| Clc1ccc(C(c2ccc(Cl)cc2)n2cc[n+](CC(OCc3ccc(Cl)cc3Cl)c3ccc(Cl)cc3Cl)c2)cc1 (stereo not shown) | cell viability | flow cytometry, PI | bloodstream form | 24 h |  | 600 nM |
| CC(=O)OC[C@H]1O[C@@H]([Se]Sc2ccccc2)[C@H](OC(C)=O)[C@@H](OC(C)=O)[C@@H]1OC(C)=O | parasite growth |  |  | 24 h |  | 770 nM |
| CCNc1nc(N)c(C(=O)c2ccc(Cl)s2)s1 | cell proliferation | resazurin | bloodstream form | 73 h |  | 2000 nM |
| CC(=O)N[C@@H]1[C@@H](OC(C)=O)[C@H](OC(C)=O)[C@@H](COC(C)=O)O[C@H]1[Se]Sc1ccccc1 | parasite growth |  |  | 24 h |  | 4740 nM |
| Cc1oc2nc[nH]c(=O)c2c1C(=O)N(C)CC12CC3CC(CC(C3)C1)C2 | cell viability | flow cytometry, PI | bloodstream form | 24 h |  | > 25000 nM |
| CNC(=O)c1c(F)cccc1Nc1nc(Nc2cc3c(cc2OC)CCN3C(=O)CN(C)C)nc2[nH]ccc12 | parasite growth |  |  |  |  | 2000 nM |
| Cc1ccc2c(c1Br)C(O)(CC(=O)c1ccc3c(c1)OCO3)C(=O)N2 (stereo not shown) | parasite growth | resazurin |  |  |  | 30000 nM |
| CC(=O)OC[C@H]1O[C@@H]([Se]C(=O)c2ccc([N+](=O)[O-])cc2)[C@H](OC(C)=O)[C@@H](OC(C)=O)[C@@H]1OC(C)=O | parasite growth |  |  | 24 h |  | 370 nM |

| Structure (SMILES) | observed | technique | strain | time | notes | EC50 |
| --- | --- | --- | --- | --- | --- | --- |
| COc1cccc(C(=O)c2sc(Nc3ccc(F)cc3)nc2N)c1 | parasite growth |  | bloodstream form | 69 h |  | 130 nM |
| COC(=O)c1[nH]c(C(=O)OC)c2c1-c1c[nH]c3ccc(Cl)c(c13)[C@]21C=Nc2ccc(Cl)cc21 | parasite growth | ATP luminescence |  | 48 h |  | 11000 nM |
| CCn1nc(-c2cc(Br)ccc2F)nc2c(=O)n(C)c(=O)nc1-2 | parasite growth | resazurin |  | 73 h |  | 8100 nM |
| CN(C)CCCOc1cc(F)c(-c2c(Cl)nc3ncnn3c2NCC2(C)CC2)c(F)c1 | parasite growth | SYBR Green |  | 72 h |  | 57.6 nM |
| CN(Cc1nc2ccccc2c(=O)[nH]1)C(=O)Cc1csc(-c2ccc(F)cc2)n1 | cell viability | flow cytometry, PI | bloodstream form | 24 h |  | > 25000 nM |
| CC(C)[C@H](C)Nc1c(-c2c(F)cc(OCCCN(C)C)cc2F)c(Cl)nc2ncnn12 | parasite growth | SYBR Green |  | 72 h |  | 159 nM |
| Cc1ccc(-c2cc(C(=O)NCc3ccc(S(N)(=O)=O)cc3)c3cc(Br)ccc3n2)o1 | parasite growth | resazurin |  | 73 h |  | 14500 nM |
| CC(C)[C@@H](C)Nc1c(-c2c(F)cc(C#CCCN)cc2F)c(Cl)nc2ncnn12 | parasite growth | SYBR Green |  | 72 h |  | 191 nM |
| COC(=O)c1[nH]c(C(=O)OC)c2c1-c1c[nH]c3ccc(Cl)c(c13)C21CN(C)c2ccc(Cl)cc21 (racemic) | parasite growth | ATP luminescence |  | 48 h |  | 3200 nM |
| C[C@H](Nc1c(-c2c(F)cc(OCCCN(C)C)cc2F)c(Cl)nc2ncnn12)C1CC1 | parasite growth | SYBR Green |  | 72 h |  | 101 nM |
| CC(=O)OC[C@H]1O[C@@H]([Se][Se][C@@H]2O[C@H](COC(C)=O)[C@@H](OC(C)=O)[C@H](OC(C)=O)[C@H]2OC(C)=O)[C@H](OC(C)=O)[C@@H](OC(C)=O)[C@@H]1OC(C)=O | parasite growth | flow cytometry |  | 24 h | blood stage | 540 nM |
| CC(C)[C@H](Nc1c(-c2c(F)cc(OCCCN(C)C)cc2F)c(Cl)nc2ncnn12)C(F)(F)F | parasite growth | SYBR Green |  | 72 h |  | 67.9 nM |
| CNc1nc(N)c(C(=O)c2ccc(F)cc2)s1 | cell proliferation | resazurin | bloodstream form | 73 h |  | 7000 nM |
| C[C@H](Nc1c(-c2c(F)cc(OCCCN(C)C)cc2F)c(Cl)nc2ncnn12)C(C)(C)C | parasite growth | SYBR Green |  | 72 h |  | 57.5 nM |
| CC(=O)OC[C@H]1O[C@@H]([Se]SC[C@H]2O[C@@H]3OC(C)(C)O[C@@H]3[C@H]3OC(C)(C)O[C@H]32)[C@H](OC(C)=O)[C@@H](OC(C)=O)[C@@H]1OC(C)=O | parasite growth |  |  | 24 h |  | 350 nM |

Repeated from above:
| Structure (SMILES) | observed | technique | strain | time | notes | EC50 |
| --- | --- | --- | --- | --- | --- | --- |
| Cc1ccc2c(c1Br)C(O)(CC(=O)c1ccc3c(c1)OCO3)C(=O)N2 (stereo not shown) | parasite growth | resazurin |  |  |  | 30000 nM |
| CC(=O)OC[C@H]1O[C@@H]([Se]C(=O)c2ccc([N+](=O)[O-])cc2)[C@H](OC(C)=O)[C@@H](OC(C)=O)[C@@H]1OC(C)=O | parasite growth |  |  | 24 h |  | 370 nM |
| COc1cccc(C(=O)c2sc(Nc3ccc(F)cc3)nc2N)c1 | parasite growth |  | bloodstream form | 69 h |  | 130 nM |
| COC(=O)c1[nH]c(C(=O)OC)c2c1-c1c[nH]c3ccc(Cl)c(c13)[C@]21C=Nc2ccc(Cl)cc21 | parasite growth | ATP luminescence |  | 48 h |  | 11000 nM |
